Published values from different studies.
Numbered parts are unrelated; each lists some results of a single study.

Sample 1
Cell line: HEK-293T
Organism: VSV pseudotyped with SARS-CoV-2 spike
Concentration: 10 µM
Time: 16 h
| Compound | pseudovirus infection |
| --- | --- |
| CN(C)CCCN1c2ccccc2CCc2ccc(Cl)cc21 | 37.5% |
| CN(C)C(=O)C(CCN1CCC(O)(c2ccc(Cl)cc2)CC1)(c1ccccc1)c1ccccc1 | 30.4% |
| CCCCOCCOCCOCc1cc2c(cc1CCC)OCO2 | 80.3% |
| O=C(O)COCCN1CCN([C@H](c2ccccc2)c2ccc(Cl)cc2)CC1 | 74.6% |
| Nc1nc2ccc(OC(F)(F)F)cc2s1 | 120% |

Sample 2
Target: Replicase polyprotein 1ab, polymerase (rep, Severe acute respiratory syndrome coronavirus 2, UniProt P0DTD1)
Read-out: enzyme activity
Mode: inhibitor
Concentration: 20 µM
| SMILES | inhibition [%] |
| --- | --- |
| C[C@@H]1CC(=O)NN=C1c1ccc(NN=C(C#N)C#N)cc1 | 2.3 |
| CNC(=O)c1ccc2cc([C@@]3(O)CCn4cncc43)ccc2c1 | -2.6 |
| NC(=O)CN1CCCC1=O | -0.74 |
| O=C(CNC(=O)c1ccc(Cl)cc1)NO | -7.65 |
| Nc1nc(F)nc2c1ncn2[C@@H]1O[C@H](COP(=O)(O)O)[C@@H](O)[C@@H]1O | -0.3 |
| N=C(N)NCCSSCCN=C(N)N | -5.31 |
| Nc1cc(C(Cl)=C(Cl)Cl)c(S(N)(=O)=O)cc1S(N)(=O)=O | 1.75 |
| CCCCOc1ccc(CC(=O)NO)cc1 | 19.9 |
| Oc1ccc(-c2nc(-c3ccc(F)cc3)c(-c3ccncc3)[nH]2)cc1 | -24.5 |
| O=c1oc(-c2ccc(C(F)(F)F)cc2)nn1Cc1cc(Cl)ccc1O | -0.87 |
| Cc1[nH]c2ccccc2c1C[C@@H](NC(=O)[C@@H](N)Cc1c[nH]cn1)C(=O)N[C@@H](C)C(=O)N[C@@H](Cc1c[nH]c2ccccc12)C(=O)N[C@H](Cc1ccccc1)C(=O)N[C@@H](CCCCN)C(N)=O | 4.78 |
| Oc1cccc(Nc2ncc(F)c(Nc3cccc(O)c3)n2)c1 | -1.2 |
| Cc1c(NC(=O)OC[C@@H]2COCCN2)cn2ncnc(Nc3ccc4c(cnn4Cc4cccc(F)c4)c3)c12 | 2.82 |
| CCC(=O)NO | 55.1 |
| CCC[C@@]1(CCc2ccccc2)CC(O)=C([C@H](CC)c2cccc(NS(=O)(=O)c3ccc(C(F)(F)F)cn3)c2)C(=O)O1 | -3.19 |
| N=C(N)NN | 5.85 |
| COc1ccccc1Oc1c(NS(=O)(=O)c2ccc(C)cn2)nc(-c2ccncc2)nc1OC | 0.05 |
| CCn1cc(C(=O)O)c(=O)c2ccc(-c3ccncc3)cc21 | 3.62 |
| Nc1ncnc2c1c(-c1ccc(Oc3ccccc3)cc1)nn2C1CCCC1 | -20.7 |
| Cn1cnc2c1c(=O)[nH]c(=O)n2C | -0.05 |
| CCOCc1nc2c(N)nc3ccccc3c2n1CC(C)(C)O | 1.05 |
| CCC(=O)OCC(=O)[C@@]1(OC(=O)CC)[C@@H](C)C[C@H]2[C@@H]3CCC4=CC(=O)C=C[C@]4(C)[C@@]3(Cl)[C@@H](O)C[C@@]21C | 5.02 |
| CC[C@H](C)C(=O)O[C@H]1CCC=C2C=C[C@H](C)[C@H](CC[C@@H]3C[C@@H](O)CC(=O)O3)[C@H]21 | 2.45 |
| CNCC/C=C/c1cccnc1 | -1.09 |
| COc1c(C)cnc(Cn2cc(C#CCC(C)(C)O)c3c(Cl)nc(N)nc32)c1C | -12.7 |

Sample 3
Target: Interferon regulatory factor 3, full length, phosphomimetic (IRF3, Homo sapiens, UniProt Q14653, residues 1-427, S386D/S396D/S398D/S402D/T404D/S405D)
UniProt Q14653, sequence (whole entry, unmodified, looked up): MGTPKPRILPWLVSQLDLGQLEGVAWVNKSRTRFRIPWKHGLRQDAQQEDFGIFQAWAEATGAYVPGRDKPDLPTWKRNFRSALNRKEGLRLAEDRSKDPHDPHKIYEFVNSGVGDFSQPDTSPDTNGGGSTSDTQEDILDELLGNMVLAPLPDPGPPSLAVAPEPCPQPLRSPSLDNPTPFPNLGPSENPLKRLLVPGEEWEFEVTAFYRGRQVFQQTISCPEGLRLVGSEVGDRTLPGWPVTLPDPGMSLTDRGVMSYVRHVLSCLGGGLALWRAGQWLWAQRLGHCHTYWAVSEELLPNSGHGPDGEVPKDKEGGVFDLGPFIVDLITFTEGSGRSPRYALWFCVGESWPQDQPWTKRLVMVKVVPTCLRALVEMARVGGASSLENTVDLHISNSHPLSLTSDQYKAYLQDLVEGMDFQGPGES
Method: protein-binding microarray
Molecule type: double-stranded DNA, one strand shown
Sample: in vitro
Concentration: 2540 nM top
Notes: 60-bp whole probe
Added: salmon DNA 0.4 mg/ml
Reference: random background probes
Reading: higher = stronger binding
Constant ends, left off below: GCCTAGCAC … GTGCTAGGTCTTGATTCGCTTGACGCTGCTG
| Sequence | fitted relative affinity [z-score] |
| --- | --- |
| CTGTACATCTATGTAGAAAG | 0.495 |
| GACTTTTTAGATTTTTTTTC | 1.26 |
| GACGGTTTCAGTTTCGAGAC | 6.67 |
| TTAGATTTCAGTTCCGATTC | 4.43 |
| TGTCATATACACATCTTCTG | 0.646 |
| TTAGATATCAGTCGCGATTA | -0.00798 |
| GCATTTTTCTAATTTACTTT | 1.97 |
| GACGGTTTCCTTTTCCGGAC | 10.8 |

Sample 4
Target: RNA binding protein fox-1 homolog 2, RRM domain, GST-SBP tag (RBFOX2, Homo sapiens, UniProt O43251-10, residues 100-194)
Method: RNA Bind-n-Seq
Molecule type: RNA
Sample: in vitro
Concentration: 365 nM
Notes: natural RNA segment, single round, ends assumed
Reference: no-protein control
Reading: higher = stronger binding
Constant ends, left off below: GGGAGUUCUACAGUCCGACGAUC … UGGAAUUCUCGGGUGCCAA
Target sequence (chain): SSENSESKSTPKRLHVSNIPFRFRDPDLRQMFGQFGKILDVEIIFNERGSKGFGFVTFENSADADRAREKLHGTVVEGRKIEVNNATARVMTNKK
| Sequence | RBNS enrichment (R) |
| --- | --- |
| UAUGAAUGAGAAUGGGUCUUGAAAAUAUGUGUGCACCCCUAAGCUUGAAAUUGAUCUCUAUACUCUAGCCCCUCAGCCAGCCUCCUUCCUGUUGUCUGAAACCUGGAGCU | 5.34 |
| GUGGACCCAGAGCGACCCAGAUUGGGUGGCUGGGGCGGGGCAGUAGGGUUCAUUCUCCUAGUGCCCCAAGUCCCCUCCUGCCUGGGGCUGCCCAGGGAUUGGACCUGGAC | 0.212 |
| UUAACGGAGAUCAGUGGGAGUUACAGGCAUCUCAGUUAUCAAGGAAUUGAACUCCUUGAGAGAUAGUUGGGUUUACUAAAUUAUUCUCUCUAAAAUGUCUCUGAGUGAAA | 0.584 |
| UGUUGGUACUCAGAGUUGUAUUUGCAGCAGAAAAUGCAGAAUAACCCAGAAAUGGAGCCCGGAGCCCAAUUCCAGAGAGGAAGGGAAAGAAGAGACGAUGCCUGGACAAU | 0.706 |
| CUUCACUGGUUUAUCUGCAGAAAUUUCUCUGGGCUUUUUUCGGUGUUAGAUUCAACACUGCGCUAAAGCGGGGAUGUUCCAUUGAAUAAAAGAGCAGUGUGGUUUUCUGG | 0.366 |
| GUAGAUUUAAAUGCUCAAAAAUAAAUGUAACUGAGAAGAGUUAAUAAUUGUGAGAUUUUUCCCAAAUUGAGAUACAGAAGAAAAUAUAGUUUGAAUCUGAAAUUUAACAC | 0.72 |
| CUUUAAAUCUGAUGUUUCCUGUACCUGCCACACUAUGUUAGAAUGUGUCCUUCAAACAUAUCCUCCUGCAACUUCUCAAACUGUACUAAAUUGAUAUUUCUUGAAGUCUA | 0.561 |
| CAAAGCGCCUUUACACAGGCCUCGGAAAACAAUGGAGUGAGCACAAGAUGCCCUGUGCAGCUGCCCGAGGGUCUCCGCCCACCCCGGCCGGACUUUGAUCCCCCCGAAGU | 0.204 |

Sample 5
Target: Ras GTPase-activating protein-binding protein 1, full length (G3BP1, Homo sapiens, UniProt Q13283)
UniProt Q13283, sequence (whole entry, looked up): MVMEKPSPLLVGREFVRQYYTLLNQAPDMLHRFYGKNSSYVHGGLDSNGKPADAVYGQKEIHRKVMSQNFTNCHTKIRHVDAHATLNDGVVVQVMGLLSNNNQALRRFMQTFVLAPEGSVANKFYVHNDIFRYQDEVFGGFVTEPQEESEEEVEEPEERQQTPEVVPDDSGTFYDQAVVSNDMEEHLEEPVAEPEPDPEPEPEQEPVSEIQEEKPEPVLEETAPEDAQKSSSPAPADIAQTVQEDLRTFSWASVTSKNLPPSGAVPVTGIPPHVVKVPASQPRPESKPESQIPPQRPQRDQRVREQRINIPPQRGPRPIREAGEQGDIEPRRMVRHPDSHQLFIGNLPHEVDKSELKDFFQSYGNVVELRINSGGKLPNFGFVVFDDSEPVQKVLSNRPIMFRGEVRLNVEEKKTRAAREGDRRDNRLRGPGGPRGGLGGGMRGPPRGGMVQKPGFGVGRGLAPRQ
Method: RNA Bind-n-Seq
Molecule type: RNA
Sample: in vitro
Concentration: 200 nM
Notes: whole 134-nt RNA, ends assumed
Added: 150 mM KCl
Reference: input library
Reading: higher = stronger binding
Constant ends, left off below: GGGAGUUCUACAGUCCGACGAUC … UGGAAUUCUCGGGUGUCAAGG
| Sequence | log2 enrichment |
| --- | --- |
| AGUCCUGUGCUACACAUCGUAUGUACCGAAUCAAAUUUAAACCCCCAAACCCCCAAAAAAGUAUUAUGUUACGCCGUUCGGAUCUGCACU | -0.551 |
| AAGUCCUGUGCUACACAUCGUAUGUACCGAAUCGGGGUUUUUGGGGAGGGGUGGGGAAAGUAUUAUGUUACGCCGUUCGGAUCUGCACUU | 0.838 |
| CUGUGCUACACAUCGUAUGUACCGAAUCGGGAAAAAAAGGGUUUUUUUGGGUUUUUUUGGGAAAGUAUUAUGUUACGCCGUUCGGAUCUG | -1.39 |
| UCAGAAGGUCUUUUAAGUCUGACCACCCAGCUUGUCAAGGAAAAACUCUCCACCUGUGAAGCAGAGGACAUCGCCACCUAUGAGCAGAAU | 0.828 |
| AGUCCUGUGCUACACAUCGUAUGUACCGAAUCGGGUUUUUGGGAAAAAGGGAAAGGGAAAGUAUUAUGUUACGCCGUUCGGAUCUGCACU | -0.3 |
| ACCAUGCAGGUGGGCAUCUUUGGGAAGUGGGGCAAGGGGGGGAUAGGGAGGGGGGUAACACUUUCGGAACAGGUGGUCCCAGGUCGUUUC | 1.78 |
| CAAGUCCUGUGCUACACAUCGUAUGUACCGAAUCGGGAAAGGGAAAAAGGGUGGGAAAGUAUUAUGUUACGCCGUUCGGAUCUGCACUUC | 0.78 |
| CUCAAGUCCUGUGCUACACAUCGUAUGUACCGAAUCGGGGAAGGAAGGAAGGGAAAGUAUUAUGUUACGCCGUUCGGAUCUGCACUUCCA | -0.045 |

Other studies, line by line
Target: Replicase polyprotein 1ab, main protease (rep, Severe acute respiratory syndrome coronavirus 2, UniProt P0DTD1)
Read-out: enzyme activity
Mode: inhibitor
Concentration: 20 µM
| SMILES | conditions | inhibition [%] |
| --- | --- | --- |
| CCOC(=O)C1=C(N)Oc2ccc(Br)cc2[C@H]1[C@H](C#N)C(=O)OCC | primary screen | 44.3 |
| CC[PH](CC)(CC)[Au][S][C@@H]1O[C@H](COC(C)=O)[C@@H](OC(C)=O)[C@H](OC(C)=O)[C@H]1OC(C)=O | hit confirmation | 99.6 |

Some of these lines once more (other studies, line by line):
| SMILES | conditions | inhibition [%] |
| --- | --- | --- |
| CCOC(=O)C1=C(N)Oc2ccc(Br)cc2[C@H]1[C@H](C#N)C(=O)OCC | primary screen | 44.3 |
| CC[PH](CC)(CC)[Au][S][C@@H]1O[C@H](COC(C)=O)[C@@H](OC(C)=O)[C@H](OC(C)=O)[C@H]1OC(C)=O | hit confirmation | 99.6 |
